Measured values collected from several papers.
Protocols differ between the studies behind these lines. Values joined by “and” are separate records of one study, mostly repeats; a detail may differ. ± gives the spread as reported.

SMILES | tested on | test | system | setting | quantity | value
O=C1NC2(CC2)COc2ncc(F)cc2[C@H]2COCCN2c2ccn3ncc1c3n2 | – | – | Sprague-Dawley rat, male, adrenals | oral, 20 mg/kg/day, 4 weeks dosing, end of recovery | organ-to-body weight ratio | 0.014 ± 0.002%
Cc1cc(Nc2nc(C[C@@]3(C(=O)O)CCN(Cc4cccc(Cl)c4F)[C@H](C)C3)cc(C)c2F)[nH]n1 | DU-4475 | cell growth or viability, ATP luminescence | – | 5 days | IC50 | 0.0964 µM
O=C1C=CC(=O)c2c(O)cccc21 | MOLT-3 | cell growth or viability, XTT | – | – | IC50 | 7.93 µM
Oc1cccc2cccnc12.Oc1cccc2cccnc12.[Cl][Fe]([Cl])[Cl] | A2780 | viability, MTT | – | 48 h | IC50 | 3.3 ± 0.3 µM
CC(=O)N[C@H](C(=O)N[C@@H](CCCNC(=N)N)C(=O)N[C@@H](CCCCN)C(=O)N[C@@H](CCCNC(=N)N)C(=O)N[C@]1(C)CCCCCCC=CCCC[C@@](C)(C(=O)N[C@@H](CCCNC(=N)N)C(=O)N[C@@H](CCC(=O)O)C(=O)N[C@@H](CC(C)C)C(=O)N[C@H](C(=O)N[C@@H](CCC(=O)O)C(N)=O)C(C)C)NC(=O)[C@H](CCC(N)=O)NC(=O)[C@H](CC(C)C)NC(=O)[C@H](CC(C)C)NC(=O)[C@H](CCCNC(=N)N)NC(=O)[C@H](CCCNC(=N)N)NC(=O)[C@H](CC(C)C)NC1=O)C(C)C | A-431 (wild-type EGFR) | cell viability | – | 18 h | IC50 | 2.88 ± 0.41 µM
O=c1n(CCNCCOS(=O)(=O)c2ccccc2)c(=O)n(S(=O)(=O)c2ccccc2)c(=O)n1S(=O)(=O)c1ccccc1 | A549 | cell growth or viability, MTT | – | 72 h | IC50 | 12.7 µg/mL
Cc1cc(Oc2nc(N3CC[C@@H](c4ccncc4)C3)ncc2F)[nH]n1 | 22Rv1 | cell proliferation | prostate cancer | – | IC50 | 95.5 µM
CC(=O)N[C@H](C(=O)N[C@@H](CCCNC(=N)N)C(=O)N[C@@H](CCCCN)C(=O)N[C@@H](CCCNC(=N)N)C(=O)N[C@@]1(C)CCCC=CCCC[C@@](C)(C(=O)N[C@@H](CC(C)C)C(=O)N[C@@H](CCC(N)=O)C(=O)N[C@@H](CCC(=O)O)C(=O)N[C@@H](CCCNC(=N)N)C(=O)N[C@@H](CCC(=O)O)C(=O)N[C@@H](CC(C)C)C(=O)N[C@H](C(=O)N[C@@H](CCC(=O)O)C(N)=O)C(C)C)NC(=O)[C@H](CCCNC(=N)N)NC(=O)[C@H](CCCNC(=N)N)NC(=O)[C@H](CC(C)C)NC1=O)C(C)C | A-431 | cell viability | – | 18 h, serum-free | IC50 | > 100 µM
CC(=O)[C@@H]1CCCN1C(=O)[C@@H]1CCCN1C(=O)[C@H](Cc1ccccc1)NC(=O)[C@@H](NC(=O)[C@@H](NC(=O)[C@@H](NC(=O)[C@@H]1CCCN1C(=O)[C@H](C)NC(=O)OC(C)(C)C)C(C)C)C(C)C)C(C)C | HEK293 | cell growth or viability, SRB | – | – | IC50 | 423 µM and 355 µM and 309 µM
CC[C@H](C)[C@H](NC(=O)[C@H](CCCCN)NC(=O)[C@@H](NC(=O)[C@H](CCC(N)=O)NC(=O)[C@H](CCCNC(=N)N)NC(=O)[C@H](CC(C)C)NC(=O)CNC(=O)[C@H](Cc1ccccc1)NC(=O)CNC(=O)[C@H](Cc1ccc(O)cc1)NC(=O)CNC(=O)[C@H](CCCCN)NC(=O)[C@@H](NC(=O)[C@H](Cc1ccccc1)NC(=O)[C@@H](NC(=O)[C@H](CC(=O)O)NC(=O)[C@H](CCCNC(=N)N)NC(=O)[C@H](C)NC(=O)[C@H](CO)NC(=O)[C@H](CCCCN)NC(=O)CNC(=O)[C@H](CC(C)C)NC(=O)[C@H](CC(=O)O)NC(=O)[C@H](C)NC(=O)[C@H](Cc1ccc(O)cc1)NC(=O)[C@@H](NC(=O)[C@@H]1CCCN1)[C@@H](C)O)C(C)C)[C@@H](C)O)[C@@H](C)CC)C(=O)N[C@@H](Cc1c[nH]c2ccccc12)C(=O)N[C@@H](Cc1ccccc1)C(=O)N[C@@H](CCC(N)=O)C(=O)N[C@@H](CC(N)=O)C(=O)N[C@@H](CCCNC(=N)N)C(=O)N[C@@H](CCCNC(=N)N)C(=O)N[C@@H](CCSC)C(=O)N[C@@H](CCCCN)C(=O)N[C@@H](Cc1c[nH]c2ccccc12)C(=O)N[C@@H](CCCCN)C(=O)N[C@@H](CCCCN)C(=O)O | MEC1 | cell growth or viability, flow cytometry | – | 90 min | IC50 | 4.2 µM

Some of these lines once more:
SMILES | tested on | test | system | setting | quantity | value
Oc1cccc2cccnc12.Oc1cccc2cccnc12.[Cl][Fe]([Cl])[Cl] | A2780 | viability, MTT | – | 48 h | IC50 | 3.3 ± 0.3 µM
